Measurements collected from several papers.
Compare with care: the assays were run in different laboratories. ± marks the error that the study gave.

SMILES | target | assay | test system | setting | scale | quantity | result
CC[C@H](C)[C@H](NC(=O)[C@@H](NC(=O)CNC(=O)[C@H](C)NC(=O)[C@@H](N)CCCNC(=N)N)C(C)C)C(=O)N[C@@H](CCCCN)C(=O)N[C@@H](CCCCN)C(=O)N[C@H](C(=O)O)[C@@H](C)O | Interferon regulatory factor 2-binding protein 2, RING domain (Homo sapiens, UniProt Q7Z5L9) | isothermal titration calorimetry |  |  |  | Kd | 12.9 ± 1.17 µM
CSCC[C@H](NC(=O)CNC(=O)[C@H](Cc1ccccc1)NC(=O)[C@H](CC(=O)O)NC(=O)CNC(=O)c1ccc2c(c1)C(=O)OC21c2ccc(N(C)C)cc2Oc2cc(N(C)C)ccc21)C(=O)N[C@@H](CO)C(=O)N[C@@H](CCCNC(=N)N)C(=O)N[C@@H](CC(=O)O)C(=O)N[C@H](C(=O)N[C@@H](Cc1ccc(OP(=O)(O)O)cc1)C(=O)N[C@@H](CO)C(=O)N[C@H](C(=O)N[C@@H](CC(=O)O)C(=O)N[C@@H](Cc1ccc(O)cc1)C(=O)N[C@@H](Cc1ccc(O)cc1)C(=O)N[C@@H](CCCNC(=N)N)C(=O)N[C@H](C(=O)N[C@@H](CC(=O)O)C(=O)O)C(C)C)[C@@H](C)O)C(C)C | VAV3, SH2 domain (Homo sapiens, UniProt Q9UKW4) | binding |  |  |  | Kd | 0.894 µM
O=C(O)[C@H]1O[C@@H](Oc2c(-c3ccc(O)c(O)c3)oc3cc(O)cc(O)c3c2=O)[C@H](O)[C@@H](O)[C@@H]1O | RPSA (Homo sapiens, UniProt P08865) | binding |  |  |  | Kd | 0.252 ± 0.009 µM
CSCC[C@H](NC(=O)[C@H](Cc1ccc(OP(=O)(O)O)cc1)NC(=O)CNC(=O)CNC(=O)[C@H](CC(=O)O)NC(=O)[C@H](CO)NC(=O)[C@H](CCC(=O)O)NC(=O)CNC(=O)[C@@H](NC(=O)[C@H](CC(C)C)NC(=O)[C@H](CO)NC(=O)c1ccc2c(c1)C(=O)OC21c2ccc(N(C)C)cc2Oc2cc(N(C)C)ccc21)[C@@H](C)O)C(=O)N[C@@H](CC(=O)O)C(=O)N[C@@H](CCSC)C(=O)N[C@@H](CO)C(=O)N[C@@H](CCCCN)C(=O)N[C@@H](CC(=O)O)C(=O)N[C@@H](CCC(=O)O)C(=O)N[C@@H](CC(=O)O)C(=O)O | Ras and Rab interactor 1, SH2 domain (RIN1, Homo sapiens, UniProt Q13671) | binding |  |  |  | Kd | 0.724 µM
CN(C)c1ccc2c(-c3cc(C(=O)NCCOCCOCCCCCCCl)ccc3C(=O)[O-])c3ccc(=[N+](C)C)cc-3oc2c1 | dhaA (Rhodococcus rhodochrous, UniProt P0A3G2, H272F) |  |  |  |  | Kd | 0.32 ± 0.02 µM
C[C@H]1CN(c2n[nH]c3nc(N[C@H]4CC[C@H](NS(=O)(=O)CCC(F)(F)F)CC4)ncc23)CCO1 | DAPK3 (Homo sapiens, UniProt O43293) | inhibitor, Kinobeads competition profiling |  | 0.8 µM | baseline: vehicle | relative abundance | 1.07
CC(=O)N[C@H](C(=O)N[C@@H](CC(N)=O)C(=O)N[C@@H](CCCCN)C(=O)N[C@@H](C)C(=O)N[C@@H](CC(C)C)C(=O)N1CCC[C@H]1C(=O)N[C@@H](C)C(=O)N[C@@H](CC(C)C)C(=O)N1CCC[C@H]1C(=O)N[C@H](C(=O)N[C@@H](C)C(N)=O)C(C)C)C(C)C | High osmolarity signaling protein SHO1, SH3 domain (SHO1, Saccharomyces cerevisiae, UniProt P40073) | binding, isothermal titration calorimetry | 50 mM sodium phosphate, 100 mM NaCl | pH 7.0, 25 °C |  | Kd | 15.7 ± 0.8 µM
CC[C@H](C)[C@H](NC(=O)[C@H](CCCNC(=N)N)NC(=O)CNC(=O)[C@H](Cc1c[nH]c2ccccc12)NC(=O)[C@@H]1CSC[C@@H](NC(=O)[C@H](Cc2ccc(O)cc2)NC(=O)[C@H](Cc2c[nH]c3ccccc23)NC(=O)[C@H](CC(C)C)NC(=O)CNC(=O)[C@H](CCCNC(=N)N)NC(=O)c2ccc3c(c2)C(=O)OC32c3ccc(O)cc3Oc3cc(O)ccc32)C(=O)N[C@@H](CC(C)C)C(=O)N[C@@H](CO)C(=O)N1)C(=O)NCC(=O)N[C@@H](CCCNC(=N)N)C(=O)N[C@@H](CCCNC(=N)N)C(=O)NCC(=O)O | Sortase B (srtB, Staphylococcus aureus, UniProt Q2FZE3) | binding, fluorescence polarization |  | pH 7.5 |  | Kd | > 500 µM
CC(=O)N[C@H](C(=O)N1C[C@H](O)C[C@H]1C(=O)NCc1ccc(-c2scnc2C)cc1)C(C)(C)SCCCCCCNC(=O)C[C@@H]1N=C(c2ccc(Cl)cc2)c2c(sc(C)c2C)-n2c(C)nnc21 | Bromodomain-containing protein 2, BD1 (BRD2, Homo sapiens, UniProt P25440, K107A/Q101K/V106E) | binary binding, ITC |  | 25 °C, BD1 KEA mutant titrated |  | Kd | 0.035 ± 0.004 µM
CCCCCCCCCCCCCCCC[N+](C)(C)C | Gdx-Clo mutant G10I/W16G/A17T/M39Y/A60T/A67I/K101N | tryptophan fluorescence |  |  |  | Kd | 6.5 µM
COc1ccc(C(CN(C)C)C2(O)CCCCC2)cc1 (centres unmarked) | Nuclear receptor subfamily 2 group C member 2, ligand-binding domain (Homo sapiens, UniProt P49116) | SPR imaging |  |  |  | Kd | 0.00799 µM
CC[C@H](C)[C@H](NC(=O)CNC(=O)[C@H](CC(=O)O)NC(=O)[C@H](Cc1ccc(OP(=O)(O)O)cc1)NC(=O)[C@@H]1CCCN1C(=O)[C@H](CCCCN)NC(=O)[C@H](CO)NC(=O)CNC(=O)[C@H](Cc1ccccc1)NC(=O)[C@@H](NC(=O)[C@H](CCSC)NC(=O)[C@H](CC(C)C)NC(=O)[C@H](CCC(=O)O)NC(=O)c1ccc2c(c1)C(=O)OC21c2ccc(N(C)C)cc2Oc2cc(N(C)C)ccc21)[C@@H](C)O)C(=O)N1CCC[C@H]1C(=O)N[C@@H](C)C(=O)N[C@@H](CO)C(=O)N[C@@H](CCC(=O)O)C(=O)N[C@@H](CC(=O)O)C(=O)O | SH2 domain-containing adapter protein B, SH2 domain (SHB, Homo sapiens, UniProt Q15464) | binding |  |  |  | Kd | 1.06 µM
CC(C)C[C@@H]1NC(=O)CNC(=O)[C@H](CC(C)C)NC(=O)[C@@H]2CCCN2C(=O)[C@H](CC(=O)O)NC(=O)[C@H](Cc2ccc(O)cc2)NC(=O)CNC(=O)[C@@H](Cc2ccc(O)cc2)NC(=O)CSC[C@@H](C(N)=O)NC(=O)[C@H](C)NC(=O)[C@H](Cc2ccccc2)NC(=O)[C@H](Cc2ccc(O)cc2)NC(=O)[C@H](CCCCN)NC1=O | Vacuolar protein sorting-associated protein 29 (VPS29, Homo sapiens, UniProt Q9UBQ0) | ITC |  | 25 °C |  | Kd | 0.009 ± 0.002 µM
CC[C@H](CO)Nc1nc(NCc2ccc(-c3ccccn3)cc2)c2ncn(C(C)C)c2n1 | CLK2 (Homo sapiens, UniProt P49760) | binding, competition affinity chromatography | SH-SY5Y cell extract |  |  | Kd | 6.24 µM
CC[C@H](C)[C@H](NC(=O)[C@H](Cc1ccc(OP(=O)(O)O)cc1)NC(=O)[C@H](CCC(=O)O)NC(=O)[C@H](Cc1c[nH]cn1)NC(=O)CNC(=O)[C@H](CC(=O)O)NC(=O)[C@H](CO)NC(=O)[C@H](CO)NC(=O)[C@@H](NC(=O)[C@H](CO)NC(=O)[C@H](CCC(=O)O)NC(=O)c1ccc2c(c1)C(=O)OC21c2ccc(N(C)C)cc2Oc2cc(N(C)C)ccc21)C(C)C)C(=O)N[C@@H](Cc1ccc(O)cc1)C(=O)N[C@H](C(=O)N[C@@H](CC(=O)O)C(=O)N1CCC[C@H]1C(=O)N[C@@H](CCSC)C(=O)N[C@@H](CCC(N)=O)C(=O)N[C@@H](CC(=O)O)C(=O)O)C(C)C | Growth factor receptor-bound protein 10, SH2 domain (Homo sapiens, UniProt Q13322) | binding |  |  |  | Kd | 1.84 µM
N=C(N)NOCC[C@H](N)C(=O)O | Peptidylarginine deiminase, truncated (Porphyromonas gingivalis, UniProt Q9RQJ2) | binding |  |  |  | Kd | 5600 ± 1000 µM
CC[C@H](C)[C@H](NC(=O)[C@H](C)N)C(=O)N[C@@H](CO)C(=O)N[C@@H](CO)C(=O)N[C@@H](CO)C(=O)N[C@@H](CO)C(=O)N[C@@H](CS)C(=O)N[C@@H](CCC(=O)O)C(=O)N[C@@H](CC(C)C)C(=O)N1CCC[C@H]1C(=O)N[C@@H](CC(C)C)C(=O)N[C@H](C(=O)N[C@@H](C)C(=O)N[C@H](C(=O)N[C@@H](CCCCN)C(=O)N[C@@H](CCCCN)C(=O)N[C@@H](CCCCN)C(=O)N[C@@H](CCCCNC(=O)CCCCCNC(=S)Nc1ccc2c(c1)C(=O)OC21c2ccc(O)cc2Oc2cc(O)ccc21)C(N)=O)C(C)C)C(C)C | E3 ubiquitin-protein ligase XIAP, BIR1 domain (XIAP, Homo sapiens, UniProt P98170) | fluorescence polarization |  | 30 min, pH 7.5, together with: 20 nM FITC-labeled peptide |  | Kd | no binding
CC(C)C[C@H](N)C(=O)O | livJ (Escherichia coli, UniProt P0AD96, Q172C) | fluorescence titration |  |  |  | Kd | 0.5 µM
CC(C)C[C@H](NC(=O)[C@@H](NC(=O)[C@H](CO)NC(=O)[C@H](CO)NC(=O)[C@@H](NC(=O)[C@H](CC(=O)O)NC(=O)[C@H](CC(C)C)NC(=O)[C@@H]1CCCN1C(=O)[C@H](CO)NC(=O)c1ccc2c(c1)C(=O)OC21c2ccc(N(C)C)cc2Oc2cc(N(C)C)ccc21)[C@@H](C)O)C(C)C)C(=O)N[C@@H](Cc1ccc(OP(=O)(O)O)cc1)C(=O)N[C@H](C(=O)N[C@@H](C)C(=O)N[C@H](C(=O)N[C@@H](CCC(N)=O)C(=O)N1CCC[C@H]1C(=O)N[C@@H](CC(N)=O)C(=O)N[C@@H](CCC(=O)O)C(=O)N[C@@H](CC(=O)O)C(=O)O)C(C)C)[C@@H](C)O | SH2B3, SH2 domain (Homo sapiens, UniProt Q9UQQ2) | binding |  |  |  | Kd | 0.508 µM
Cc1cn([C@H]2C[C@H](O)[C@@H](COP(=O)(O)OP(=O)(O)OP(=O)(O)O)O2)c(=O)[nH]c1=O | DNA polymerase I, Klenow fragment (polA, Escherichia coli, UniProt P00582, C907S/D424A/L744C/Y766A) | nucleotide incorporation, substrate, single-turnover rapid quench |  | together with: radiolabelled primer-template DNA |  | Kd | 150 ± 40 µM

Excerpt of the above:
SMILES | target | assay | test system | setting | scale | quantity | result
CC[C@H](CO)Nc1nc(NCc2ccc(-c3ccccn3)cc2)c2ncn(C(C)C)c2n1 | CLK2 (Homo sapiens, UniProt P49760) | binding, competition affinity chromatography | SH-SY5Y cell extract |  |  | Kd | 6.24 µM
